Results of several laboratories.
Numbered parts are unrelated; each lists some results of a single study.

Series 1
Target: Sal-like protein 4, full length isoform A (SALL4, Homo sapiens, UniProt Q9UJQ4, residues 1-1053)
Chain of UniProt Q9UJQ4 (whole entry, looked up): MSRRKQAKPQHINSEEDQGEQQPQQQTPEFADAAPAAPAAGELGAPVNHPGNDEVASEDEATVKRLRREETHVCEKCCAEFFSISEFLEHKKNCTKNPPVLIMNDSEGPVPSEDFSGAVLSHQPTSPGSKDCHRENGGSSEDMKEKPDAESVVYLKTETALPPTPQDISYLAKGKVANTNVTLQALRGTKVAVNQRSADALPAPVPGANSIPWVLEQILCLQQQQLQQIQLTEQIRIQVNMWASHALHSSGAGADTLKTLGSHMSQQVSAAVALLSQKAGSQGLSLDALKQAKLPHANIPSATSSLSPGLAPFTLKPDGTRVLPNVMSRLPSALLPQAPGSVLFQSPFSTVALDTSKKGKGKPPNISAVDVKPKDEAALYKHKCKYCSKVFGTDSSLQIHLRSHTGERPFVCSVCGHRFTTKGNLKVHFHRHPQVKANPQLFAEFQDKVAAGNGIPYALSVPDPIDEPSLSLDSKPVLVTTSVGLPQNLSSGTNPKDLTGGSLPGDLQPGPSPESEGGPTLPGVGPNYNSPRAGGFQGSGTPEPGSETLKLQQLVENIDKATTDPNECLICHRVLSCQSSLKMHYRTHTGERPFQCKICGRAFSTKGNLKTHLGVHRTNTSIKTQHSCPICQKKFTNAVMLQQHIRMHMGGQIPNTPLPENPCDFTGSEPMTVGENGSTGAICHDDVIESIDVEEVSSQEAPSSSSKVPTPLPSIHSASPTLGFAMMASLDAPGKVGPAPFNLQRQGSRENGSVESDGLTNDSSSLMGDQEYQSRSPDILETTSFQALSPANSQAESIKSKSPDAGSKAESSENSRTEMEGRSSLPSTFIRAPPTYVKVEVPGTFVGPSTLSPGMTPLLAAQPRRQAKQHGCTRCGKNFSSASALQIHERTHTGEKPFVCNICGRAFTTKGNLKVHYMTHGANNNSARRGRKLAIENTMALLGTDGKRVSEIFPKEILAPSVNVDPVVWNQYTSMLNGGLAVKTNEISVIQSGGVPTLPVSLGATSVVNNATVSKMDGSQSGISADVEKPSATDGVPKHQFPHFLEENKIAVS
Technique: universal PBM
Form: double-stranded DNA, one strand shown
Sample: in vitro
Concentration: 600 nM
Setting: 8-mer, flanks averaged, mean of replicates
Reading: higher = stronger binding
| Sequence | E-score |
| --- | --- |
| ATGCGGGC | -0.231 |
| AAGGGGAC | -0.211 |
| ACCGCTCT | -0.157 |
| CTCAATGC | 0.0745 |
| TAAGAAGA | 0.234 |
| GTCATAGA | 0.184 |

Series 2
Target: Histone acetyltransferase KAT6A, winged helix 2, GST fusion (KAT6A, Homo sapiens, UniProt Q92794, residues 85-181)
Technique: protein binding microarray
Form: double-stranded DNA, one strand shown
Sample: in vitro
Concentration: not given
Setting: 8-mer, flanks averaged, mean of 2 arrays, mostly near background
Reference: not given
Reading: higher = stronger binding
Construct (chain): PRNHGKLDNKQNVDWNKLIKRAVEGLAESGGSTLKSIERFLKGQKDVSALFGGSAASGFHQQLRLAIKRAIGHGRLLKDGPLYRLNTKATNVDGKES
| Sequence | E-score |
| --- | --- |
| AAATTCTA | 0.125 |
| ATTGCATA | 0.0547 |
| TAGAAACA | 0.131 |
| ATGCCCGG | 0.137 |
| ACCCAGAA | 0.0502 |
| CAAACACA | 0.125 |
| CCTGAGGA | -0.0239 |
| CATTTAGC | -0.0101 |

Series 3
Target: PABPC1L2, full length, GST fusion (mouse, UniProt A0ABA7IW68)
Technique: RNAcompete
Form: RNA
Sample: in vitro
Concentration: 20 nM
Setting: 7-mer, probes averaged, single round
Reference: mean of 7-mers
Reading: higher = stronger binding
Construct (chain): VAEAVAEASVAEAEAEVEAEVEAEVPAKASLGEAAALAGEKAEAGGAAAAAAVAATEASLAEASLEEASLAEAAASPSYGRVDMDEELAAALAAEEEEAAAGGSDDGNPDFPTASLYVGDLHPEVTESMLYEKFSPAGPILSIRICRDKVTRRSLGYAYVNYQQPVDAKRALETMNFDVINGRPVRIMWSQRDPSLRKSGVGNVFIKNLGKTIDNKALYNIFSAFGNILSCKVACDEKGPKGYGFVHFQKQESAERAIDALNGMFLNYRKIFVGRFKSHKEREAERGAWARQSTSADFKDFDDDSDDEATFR
| Sequence | 7-mer Z-score |
| --- | --- |
| AGGCGGU | 0.169 |
| UUCCGGG | -0.246 |
| AAAGUGG | 2.15 |
| CCUACAG | -0.322 |
| GUAGCUU | -0.24 |
| GACCAUG | 0.0279 |
| UGUGACG | -0.0754 |

Further values, each from its own experiment
| Molecule | target | test | test system | conditions | how to read | endpoint | value |
| --- | --- | --- | --- | --- | --- | --- | --- |
| PhoQ, residues 284 288 289 292 302 303 SCKMEA | PhoP, residues 12 14 15 18 19 LFHKL (Escherichia coli, UniProt P23836) | Sort-seq, measured: YFP reporter | E. coli | PhoQ-PhoP variant library, with: 10 µM Mg2+ | reference: high Mg2+ state, higher = stronger signaling | fold induction | 12.1 |
